{"data": "Experimental data from different studies", "note": "Parts stem from different laboratories: compare values within a part only. Substitutions count along the parent as printed."}
{"data": "Study 1", "target": "TAR DNA-binding protein 43, full length, His tag (TARDBP, Homo sapiens, UniProt Q13148, residues 1-414)", "technique": "RNA Bind-n-Seq", "form": "RNA", "matrix": "in vitro", "tested at": "20 nM", "setting": "6-mer, flanks averaged, single round", "together with": "150 mM KCl", "baseline": "input library", "reading": "higher = stronger binding"}
{"Oligonucleotide": "AGUAGG", "6-mer enrichment (R)": 1.5}
{"Oligonucleotide": "UAUAAU", "6-mer enrichment (R)": 0.773}
{"Oligonucleotide": "UGCCAA", "6-mer enrichment (R)": 0.692}
{"Oligonucleotide": "GGGAUA", "6-mer enrichment (R)": 1.83}
{"Oligonucleotide": "GAUGAC", "6-mer enrichment (R)": 0.848}
{"Oligonucleotide": "UGUUUC", "6-mer enrichment (R)": 0.645}
{"Oligonucleotide": "GCAACG", "6-mer enrichment (R)": 1.12}
{"Oligonucleotide": "UCAUAU", "6-mer enrichment (R)": 0.559}
{"data": "Study 2", "target": "Serine/threonine-protein kinase N2 (PKN2, Homo sapiens, UniProt Q16513)", "effect on": "enzyme activity", "mode": "inhibitor", "tested at": "0.5 µM", "baseline": "control", "UniProt Q16513, sequence (whole entry, looked up)": "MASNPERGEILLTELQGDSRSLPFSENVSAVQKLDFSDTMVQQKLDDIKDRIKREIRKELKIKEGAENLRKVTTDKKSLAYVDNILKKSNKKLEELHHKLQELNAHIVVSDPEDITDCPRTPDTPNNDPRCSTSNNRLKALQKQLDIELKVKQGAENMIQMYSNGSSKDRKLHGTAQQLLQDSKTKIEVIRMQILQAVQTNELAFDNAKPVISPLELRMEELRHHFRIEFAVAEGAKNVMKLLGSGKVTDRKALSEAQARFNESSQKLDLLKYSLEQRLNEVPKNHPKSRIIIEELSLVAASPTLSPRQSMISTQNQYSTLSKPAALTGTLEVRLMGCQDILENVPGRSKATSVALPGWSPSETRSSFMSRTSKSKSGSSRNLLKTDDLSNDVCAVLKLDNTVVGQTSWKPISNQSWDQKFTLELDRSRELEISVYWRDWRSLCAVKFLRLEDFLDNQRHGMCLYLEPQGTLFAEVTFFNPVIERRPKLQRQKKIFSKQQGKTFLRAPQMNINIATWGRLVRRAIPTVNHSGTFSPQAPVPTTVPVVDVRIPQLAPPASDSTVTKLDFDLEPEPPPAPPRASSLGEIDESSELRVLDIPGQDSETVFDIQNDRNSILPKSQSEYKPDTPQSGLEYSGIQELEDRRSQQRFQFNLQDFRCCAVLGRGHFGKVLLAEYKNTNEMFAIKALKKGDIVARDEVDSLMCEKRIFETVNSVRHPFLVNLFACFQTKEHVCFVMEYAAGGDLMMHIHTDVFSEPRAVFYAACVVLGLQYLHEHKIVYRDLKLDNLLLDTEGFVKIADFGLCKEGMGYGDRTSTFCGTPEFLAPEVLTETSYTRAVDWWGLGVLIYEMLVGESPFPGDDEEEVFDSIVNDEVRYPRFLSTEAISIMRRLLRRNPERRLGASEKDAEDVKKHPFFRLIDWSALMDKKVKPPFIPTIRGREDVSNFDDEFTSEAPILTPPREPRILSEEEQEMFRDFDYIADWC"}
{"Compound": "O=C1NC(=O)C(c2cn(CCCO)c3ncccc23)=C1c1cnccn1", "remaining activity": "83.3%"}
{"Compound": "O=c1c2ccccc2[nH]c(=S)n1CCN1CCC(=C(c2ccc(F)cc2)c2ccc(F)cc2)CC1", "remaining activity": "97.2%"}
{"Compound": "NCCNc1ncc(C(N)=O)c(Nc2cccc(C(F)(F)F)c2)n1", "remaining activity": "89.7%"}
{"Compound": "O=C(CCCc1ccc(-c2ccccc2F)cc1)Nc1ccc(O)cc1", "remaining activity": "89.8%"}
{"Compound": "CCOC(=O)c1c(C)[nH]c(/C=C2\\C(=O)Nc3ccccc32)c1C", "remaining activity": "92%"}
{"Compound": "Oc1ccc(-c2nc(-c3ccncc3)c(-c3ccc(F)cc3)[nH]2)cc1", "remaining activity": "101%"}
{"Compound": "COc1ccc(C(=O)Nc2sc3c(c2C(N)=O)CCCC3)cc1OC", "remaining activity": "98.5%"}
{"Compound": "N#CC(C#N)=C(N)/C(C#N)=C/c1ccc(O)cc1", "remaining activity": "96.9%"}
{"Compound": "CNC(=O)c1cc(Oc2ccc(NC(=O)Nc3ccc(Cl)c(C(F)(F)F)c3)cc2)ccn1", "remaining activity": "94.2%"}
{"Compound": "COc1ccc(CNC(=O)Nc2ncc([N+](=O)[O-])s2)cc1", "remaining activity": "101%"}
{"Compound": "CO[C@H]1C[C@@H]2CC[C@@H](C)[C@@](O)(O2)C(=O)C(=O)N2CCCC[C@H]2C(=O)O[C@H]([C@H](C)C[C@@H]2CC[C@@H](O)[C@H](OC)C2)CC(=O)[C@H](C)/C=C(\\C)[C@@H](O)[C@@H](OC)C(=O)[C@H](C)C[C@H](C)/C=C/C=C/C=C/1C", "remaining activity": "89.8%"}
{"Compound": "Cc1nc(-c2ccccc2)c(-c2ccncc2)o1", "remaining activity": "93.4%"}
{"Compound": "O=C1NC(=O)C(c2cn(CCCn3ccnc3)c3ccccc23)=C1Nc1ccccc1", "remaining activity": "76.9%"}
{"Compound": "COc1cc2ncnc(Nc3ccc(F)c(Cl)c3)c2cc1OCCCN1CCOCC1", "remaining activity": "93.1%"}
{"data": "Study 3", "target": "Sigma intracellular receptor 2 (TMEM97, Homo sapiens, UniProt Q5BJF2)", "effect on": "binding", "technique": "radioligand binding", "tested at": "10 µM", "UniProt Q5BJF2, sequence (whole entry, looked up)": "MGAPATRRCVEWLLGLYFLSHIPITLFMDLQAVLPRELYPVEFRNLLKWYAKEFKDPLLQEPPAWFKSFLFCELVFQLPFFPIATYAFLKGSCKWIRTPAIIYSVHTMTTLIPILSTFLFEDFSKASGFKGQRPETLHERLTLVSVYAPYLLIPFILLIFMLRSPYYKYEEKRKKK"}
{"Compound": "O[C@]1(C(F)(F)F)CCCC[C@H]1Nc1ccc(F)cc1", "inhibition [%]": 8.95}
{"Compound": "CC(=O)Nc1c(F)cc(C(=O)N[C@H]2CC[C@H](O)CC2)cc1O[C@@H](C)c1ccccc1", "inhibition [%]": -0.94}
{"Compound": "CN1C(=O)[C@@H](N2CCc3cn(Cc4ccccc4)nc3C2=O)COc2ccccc21", "inhibition [%]": 27}
{"Compound": "CC(=O)c1c(NS(C)(=O)=O)c2cc(-c3ccc(Cl)cc3)c(-c3ccc(Cl)cc3Cl)nc2n(C)c1=O", "inhibition [%]": 17.6}
{"Compound": "CN1CCN(C(=O)C(C)(C)c2ccc(C(=O)Nc3cn4cc(-c5ccncc5)ccc4n3)cc2)CC1", "inhibition [%]": 13.4}
{"Compound": "C[C@H](NC(=O)c1cnc2n1[C@](C)(Cc1ccc(C#N)cc1)C(=O)N2c1cc(Cl)c(F)c(Cl)c1)C(=O)NC1(c2ccccn2)CC1", "inhibition [%]": 25.9}
{"Compound": "COCCc1ccc(-c2c(C)nc3c(N4CCOCC4)ccnn23)cn1", "inhibition [%]": 3.07}
{"Compound": "O=C(Nc1cnc(Oc2ccc(F)cc2)nc1)N1CCc2ncccc2[C@@H]1c1ccc(F)cc1", "inhibition [%]": 53.2}
{"Compound": "CS(=O)(=O)NCC[C@H](NC(=O)c1cncc2c1cnn2-c1ccc(F)cc1)c1ccnc(S(C)(=O)=O)c1", "inhibition [%]": -1.85}
{"Compound": "Cc1nc(N2CC[C@@H](O)C2)ncc1-c1cc(C(F)(F)F)cc2[nH]ncc12", "inhibition [%]": 45.5}
{"Compound": "C[C@@H]1CN(c2cc(-c3nn(C)c4ccc(OC5(C)CC5)cc34)ncn2)C[C@H](C)O1", "inhibition [%]": 90.4}
{"Compound": "CNC(=O)c1ccc(Nc2ncc(C(F)(F)F)c(NCc3nccnc3N(C)S(C)(=O)=O)n2)cc1", "inhibition [%]": 48.1}
{"Compound": "Nc1c(C(=O)NCc2ccc(C(=O)NCCCC3CCCCC3)cc2)cnn1-c1ccccc1", "inhibition [%]": 45.3}
{"Compound": "Cc1nc(Cc2cccc(C(F)(F)F)c2)sc1-c1ccc(C(N)=O)nc1", "inhibition [%]": -8.52}
{"data": "Study 4", "target": "FOS, bZIP domain (human)", "technique": "DHFR protein complementation", "matrix": "yeast", "setting": "single substitutions, most at no-binding floor", "baseline": "wild-type JUN-FOS pair", "reading": "higher = stronger binding", "starting sequence": "JUN, bZIP domain (human); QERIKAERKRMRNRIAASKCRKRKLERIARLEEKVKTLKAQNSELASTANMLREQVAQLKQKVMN; partner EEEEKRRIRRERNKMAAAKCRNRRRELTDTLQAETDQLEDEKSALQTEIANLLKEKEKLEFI"}
{"Change": "S47Q", "binding fitness [natural log]": 0.0533}
{"Change": "A40G", "binding fitness [natural log]": -0.261}
{"Change": "L52N", "binding fitness [natural log]": -1.29}
{"Change": "L38C", "binding fitness [natural log]": -1.28}
{"Change": "R30H", "binding fitness [natural log]": 0.0615}
{"Change": "Q58V", "binding fitness [natural log]": -0.0774}
{"Change": "Q55E", "binding fitness [natural log]": 0.00616}
{"Change": "A49C", "binding fitness [natural log]": -0.174}
{"note": "Repeated from above (study 2):"}
{"Compound": "CCOC(=O)c1c(C)[nH]c(/C=C2\\C(=O)Nc3ccccc32)c1C", "remaining activity": "92%"}
{"Compound": "Oc1ccc(-c2nc(-c3ccncc3)c(-c3ccc(F)cc3)[nH]2)cc1", "remaining activity": "101%"}
{"Compound": "COc1ccc(C(=O)Nc2sc3c(c2C(N)=O)CCCC3)cc1OC", "remaining activity": "98.5%"}
{"Compound": "N#CC(C#N)=C(N)/C(C#N)=C/c1ccc(O)cc1", "remaining activity": "96.9%"}
{"Compound": "CNC(=O)c1cc(Oc2ccc(NC(=O)Nc3ccc(Cl)c(C(F)(F)F)c3)cc2)ccn1", "remaining activity": "94.2%"}
{"Compound": "COc1ccc(CNC(=O)Nc2ncc([N+](=O)[O-])s2)cc1", "remaining activity": "101%"}
{"Compound": "CO[C@H]1C[C@@H]2CC[C@@H](C)[C@@](O)(O2)C(=O)C(=O)N2CCCC[C@H]2C(=O)O[C@H]([C@H](C)C[C@@H]2CC[C@@H](O)[C@H](OC)C2)CC(=O)[C@H](C)/C=C(\\C)[C@@H](O)[C@@H](OC)C(=O)[C@H](C)C[C@H](C)/C=C/C=C/C=C/1C", "remaining activity": "89.8%"}
